Experimental data from different studies.
Protocols differ between the studies behind these lines. Numbers after ± are the reported error.

| Structure (SMILES) | assay | system | setting | tissue uptake |
| --- | --- | --- | --- | --- |
| C[C@H](O)[C@@H](NC(=O)[C@H]1CCCN1C(=O)[C@@H](CCCCN)NC(=O)[C@@H](CO)NC(=O)[C@@H](Cc1ccc(O)cc1)NC(=O)[C@@H](CC(N)=O)NC(=O)CCOCCOCCOCCNC(=O)CN1CCN(CC(=O)O)CCN(CC(=O)O)CCN(CC(=O)O)CC1)C(=O)N[C@H](CC(=O)O)C(=O)N[C@H](CCCNC(=N)N)C(=O)N[C@H](CCC(N)=O)C(=O)N[C@H](Cc1ccc(O)cc1)C(=O)N[C@H](Cc1c[nH]cn1)C(=O)N[C@H](Cc1ccccc1)C(N)=O [copper-64 labelled] | – | C57BL/6J mice, bone | intravenous, 1.85 MBq, 0.3333 h, radiolabelled | 1.08 ± 0.57 %ID/g |
| CSCC[C@H](NC(=O)CNC(=O)[C@H](CCCCN)NC(=O)[C@H](CC(C)C)NC(=O)[C@@H]1CCCN1C(=O)[C@H](CO)NC(=O)[C@H](Cc1c[nH]cn1)NC(=O)[C@H](Cc1c[nH]c2ccccc12)NC(=O)[C@H](CCCNC(=N)N)NC(=O)[C@H](CC(C)C)NC(=O)[C@H](CCCNC(=N)N)NC(=O)[C@H](Cc1c[nH]c2ccccc12)NC(=O)[C@H](CS)NC(=O)CCCCCNC(=O)CN1CCN(CC(=O)O)CCN(CC(=O)O)CCN(CC(=O)O)CC1)C(=O)O [copper-64 labelled] | ex vivo biodistribution | BALB/c nude mice, bone | intravenous, dose not given, 1 h, Huh-7 tumour-bearing | 1.17 %ID/g |
| [2H]C([2H])([18F])[C@]([2H])(N)C(=O)O | PET | athymic nude mice, U-87 MG, tumor | dose not given, 20 min post-injection | 2.49 ± 0.36 %ID/cc |
| CC[C@H](C)[C@H](NC(=O)[C@H](CCCNC(=N)N)NC(=O)[C@H](CCCCN)NC(=O)[C@H](Cc1ccc(O)cc1)NC(=O)[C@H](CC(=O)O)NC(=O)[C@H](C)NC(=O)CNC(=O)CCOCCOCCOCCNC(=O)CN1CCN(CC(=O)O)CCN(CC(=O)O)CCN(CC(=O)O)CC1)C(=O)N[C@H](C(=O)N[C@@H](CC(C)C)C(=O)N[C@@H](CCCCN)C(=O)N[C@H](C(=O)N[C@@H](CC(N)=O)C(N)=O)C(C)C)[C@@H](C)O [copper-64 labelled] | ex vivo gamma counting | C57BL/6J male mice, B16-F10 tumour, liver | intravenous, 1.85 MBq, 20 min | 3.26 ± 1.48 %ID/g |
| CC[C@H](C)[C@H](NC(=O)[C@H](CCCCN)NC(=O)CNC(=O)[C@H](CC(C)C)NC(=O)[C@H](Cc1ccccc1)NC(=O)[C@H](CCCCN)NC(=O)[C@H](CO)NC(=O)[C@H](Cc1ccccc1)NC(=O)[C@H](Cc1c[nH]c2ccccc12)NC(=O)[C@H](CCC(N)=O)NC(=O)[C@@H](NC(=O)[C@H](Cc1ccccc1)NC(=O)CCCCCNC(=O)CN1CCN(CC(=O)O)CCN(CC(=O)O)CCN(CC(=O)O)CC1)C(C)C)C(=O)N[C@@H](CCC(=O)O)C(=O)N1CCC[C@H]1C(=O)N[C@H](CC(=O)O)C(=O)N[C@H](C(=O)N[C@@H](CO)C(=O)N[C@@H](CCC(N)=O)C(=O)N[C@H](C(=O)N[C@@H](CCC(N)=O)C(=O)N[C@@H](CC(=O)O)C(=O)N1CCC[C@H]1C(=O)N[C@@H](CC(N)=O)C(=O)N[C@@H](CC(=O)O)C(=O)N[C@@H](CCC(N)=O)C(=O)N[C@@H](Cc1ccc(O)cc1)C(=O)N[C@@H](CCC(=O)O)C(=O)N1CCC[C@H]1C(=O)N[C@@H](Cc1ccccc1)C(=O)O)C(C)C)C(C)C [copper-64 labelled] | – | C57BL/6 mice, male, MC-38 tumour-bearing, kidneys | 2 h, vehicle-treated | 34.1 ± 3.7 %ID/g |
| CC[C@H](C)[C@H](NC(=O)[C@H](CCCNC(=N)N)NC(=O)[C@H](CCCCN)NC(=O)[C@H](Cc1ccc(O)cc1)NC(=O)[C@H](CC(=O)O)NC(=O)[C@H](C)NC(=O)CNC(=O)CCOCCOCCOCCNC(=O)CN1CCN(CC(=O)O)CCN(CC(=O)O)CCN(CC(=O)O)CC1)C(=O)N[C@H](C(=O)N[C@H](C(=O)N[C@@H](CCCCN)C(=O)N[C@H](C(=O)N[C@@H](CC(N)=O)C(N)=O)C(C)C)C(C)C)[C@@H](C)O [copper-64 labelled] | ex vivo gamma counting | C57BL/6J male mice, B16-F10 tumour, blood | intravenous, 1.85 MBq, 5 min | 8.77 ± 0.573 %ID/g |
| CC(C)C[C@@H](NC(=O)[C@@H](CCCNC(=N)N)NC(=O)[C@@H](Cc1c[nH]cn1)NC(=O)[C@@H](Cc1c[nH]c2ccccc12)NC(=O)[C@@H](Cc1c[nH]cn1)NC(=O)[C@@H](Cc1ccccc1)NC(=O)[C@H](NC(=O)[C@@H](Cc1ccc(O)cc1)NC(=O)CNC(=O)CNC(=O)CCOCCOCCOCCNC(=O)CN1CCN(CC(=O)O)CCN(CC(=O)O)CC1)[C@H](C)O)C(=O)N[C@H](CC(N)=O)C(=O)N1CCC[C@@H]1C(=O)O [gallium-68 labelled] | – | C57BL/6 mice, male, muscle | intravenous, 1.85 MBq, 60 min, with: GP12 blocking | 0.66 ± 0.28 %ID/g |
| CCCC[C@H]1C(=O)N(C)[C@@H](CCCC)C(=O)N[C@@H](CCCNC(=O)CN2CCN(CC(=O)O)CCN(CC(=O)O)CCN(CC(=O)O)CC2)C(=O)N[C@H](C(=O)NCC(N)=O)CSCC(=O)N[C@@H](Cc2ccc(O)cc2)C(=O)N(C)[C@@H](C)C(=O)N[C@@H](CC(N)=O)C(=O)N2CCC[C@H]2C(=O)N[C@@H](Cc2c[nH]cn2)C(=O)N[C@@H](CC(C)C)C(=O)N(C)CC(=O)N[C@@H](Cc2c[nH]c3ccccc23)C(=O)N[C@@H](CO)C(=O)N[C@@H](Cc2c[nH]c3ccccc23)C(=O)N1C [gallium-68 labelled] | – | NOD/SCID mice with CHO-hPD-L1 xenograft, liver | 30 min post injection | 6.77 ± 0.35 %ID/g |

Repeated from above:
| Structure (SMILES) | assay | system | setting | tissue uptake |
| --- | --- | --- | --- | --- |
| C[C@H](O)[C@@H](NC(=O)[C@H]1CCCN1C(=O)[C@@H](CCCCN)NC(=O)[C@@H](CO)NC(=O)[C@@H](Cc1ccc(O)cc1)NC(=O)[C@@H](CC(N)=O)NC(=O)CCOCCOCCOCCNC(=O)CN1CCN(CC(=O)O)CCN(CC(=O)O)CCN(CC(=O)O)CC1)C(=O)N[C@H](CC(=O)O)C(=O)N[C@H](CCCNC(=N)N)C(=O)N[C@H](CCC(N)=O)C(=O)N[C@H](Cc1ccc(O)cc1)C(=O)N[C@H](Cc1c[nH]cn1)C(=O)N[C@H](Cc1ccccc1)C(N)=O [copper-64 labelled] | – | C57BL/6J mice, bone | intravenous, 1.85 MBq, 0.3333 h, radiolabelled | 1.08 ± 0.57 %ID/g |
